Experimental data of several laboratories.
Each numbered part is a random draw from the data of one study; scales do not carry over between parts. Changes are numbered by the printed parent chain.

Set 1
Target: CREBRF, bZIP domain (human)
Method: DHFR protein complementation
Sample: yeast
Notes: single substitutions, most at no-binding floor
Reference: wild-type JUN-FOS pair
Direction: higher = stronger binding
Quantity: binding fitness
Parent: JUN, bZIP domain (human); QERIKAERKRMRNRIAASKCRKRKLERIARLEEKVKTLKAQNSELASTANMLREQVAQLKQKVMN; partner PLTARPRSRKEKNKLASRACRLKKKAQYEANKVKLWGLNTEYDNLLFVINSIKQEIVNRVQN
E54S: -1.32 natural log
T48I: -1.45 natural log
R53C: -1.46 natural log
E54L: -1.27 natural log
N42F: -1.49 natural log
A57V: -1.67 natural log
M51P: -1.53 natural log

Set 2
Target: Histone acetyltransferase KAT6A, both winged helices, GST fusion (KAT6A, Homo sapiens, UniProt Q92794, residues 1-181)
Method: protein binding microarray
Molecule type: double-stranded DNA, one strand shown
Sample: in vitro
Concentration: not given
Notes: 8-mer, flanks averaged, mean of 2 arrays, mostly near background
Reference: not given
Direction: higher = stronger binding
Quantity: E-score
Target sequence (chain): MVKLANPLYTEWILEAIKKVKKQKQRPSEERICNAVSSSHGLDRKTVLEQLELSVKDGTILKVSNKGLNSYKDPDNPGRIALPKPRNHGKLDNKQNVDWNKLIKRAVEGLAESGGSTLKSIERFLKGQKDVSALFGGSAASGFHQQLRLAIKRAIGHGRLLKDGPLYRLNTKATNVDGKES
AGATACAC: 0.119
TTAGATAA: -0.0248
GCCGACGC: 0.316
CTGTAAAC: -0.0378
AAACCTTC: -0.23
GGCAGTTA: -0.0631

Set 3
Target: Max dimerization protein 1, bHLH-zipper, MAX partner unstated (MXD1, Homo sapiens, UniProt Q05195, residues 56-136)
Method: protein-binding microarray
Molecule type: double-stranded DNA, one strand shown
Sample: in vitro
Concentration: not given
Notes: k-mer, scored over probes, only values ≥0.25
Direction: higher = stronger binding
Quantity: E-score
Residues (chain): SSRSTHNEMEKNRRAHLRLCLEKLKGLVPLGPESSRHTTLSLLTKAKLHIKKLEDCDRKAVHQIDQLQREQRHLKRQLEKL
CATGTTGA: 0.384
GGGGGTAA: 0.35
ATGTGCCA: 0.292
CATGTGCC: 0.447
ACCCATGC: 0.391

Mixed results
PhoQ, residues 284 288 289 292 302 303 TAVSDG
fold induction (PhoP, residues 12 14 15 18 19 IFFTR (Escherichia coli, UniProt P23836); Sort-seq, measured: YFP reporter; E. coli; PhoQ-PhoP variant library, together with: 10 µM Mg2+; reference: high Mg2+ state, higher = stronger signaling): 0.856

Some of these lines once more (set 3):
CATGTGCC: 0.447
ACCCATGC: 0.391
